Published values of several laboratories.
“And” joins repeats or separate records; there may be more than shown. ± gives the spread as reported.

SMILES | cell line | test | conditions | how to read | quantity | result
CCOc1cncc(-c2ccc(NC(=O)C3(c4ccnc(NS(=O)(=O)C5CC5)n4)CCOCC3)nc2)n1 | SK-LMS-1 | cell proliferation, CellTiter-Glo | 72 h, Sarcoma cancer | – | IC50 | 2520 nM
C=CS(=O)(=O)Oc1ccc(OC)c(-c2c[nH]c3ncc(-c4cncc(C(=O)N(C)C)c4)cc23)c1 | Ba/F3 BCR-ABL T315I | cell proliferation | 72 h | – | GI50 | 729 ± 219 nM
Cc1n[nH]c(C)c1-c1cc2c(N3CCC[C@H](C(=O)NCc4ccc(OC(F)(F)F)cc4)C3)ncnc2[nH]1 | NCI-H2228 | cell growth or viability, MTT | 0.008 µg/mL, 72 h | – | inhibition | 50.9%
Cc1ccc(/C=N/N=C(\S)Nc2cccc(S(=O)(=O)N(C)C)c2)o1 | LDR | silenced CMV-GFP reporter derepression, qHTS | – | – | EC50 | 3.98 µM
Cc1cc(NC2CCN(C)CC2)ccc1-c1cc2c(N3CCC[C@H](C(=O)N[C@@H](C)c4ccccc4)C3)ncnc2[nH]1 | NCI-H2228 | cell growth or viability, MTT | 0.008 µg/mL, 72 h | – | inhibition | 12%
Cc1sc2c(c1C)C(c1ccc(Cl)cc1)=N[C@@H](CC(=O)NCC(=O)N1CCC3(CCC(C(=O)N4CCN(C(=O)c5cc(Cc6n[nH]c(=O)c7ccccc67)ccc5F)CC4)CC3)CC1)c1nnc(C)n1-2 | NCI-H82 | – | 1000 nM, 24 h | – | cells in G1 phase | 10%
O=C(N1CCCC1)n1cc(-c2ccc(-c3ccccc3)cc2)nn1 | mouse T cells | N-terminal labelling proteomics, measured: Oxsr1 N-terminal peptide | 0.001 µM, 6 h | baseline: DMSO | SILAC ratio per peptide | 1.17 and 0.95 and 1.09
O=C(C[Se]C(=O)c1cccnc1Nc1cccc(C(F)(F)F)c1)Nc1cccc(C(F)(F)F)c1 | NCI60 renal subpanel | total growth inhibition, inhibitor | five-dose | – | mean TGI | 3.7 µM
COc1cc(OC)c(F)c(/C=C/c2cnc3ccn(S(=O)(=O)c4cn(CCF)cn4)c3n2)c1F | SNU-16 (FGFR2-amplified) | cell proliferation | 37.0 nM | – | inhibition | 37.6% and 22.7%
CO[C@@H]1[C@@H](OC(N)=O)[C@@H](O)[C@H](Oc2ccc3c(O)c(NC(=O)c4ccc(O)c(CC=C(C)C)c4)c(=O)oc3c2C)OC1(C)C | DLD-1 BRCA2-/- | – | 100 µM, replicate A | baseline: untreated | colony survival | 0.339%
COc1c(C)c(OC(=O)c2ccccc2)c(C)c(OC(=O)c2ccccc2)c1C(=O)/C=C/c1ccccc1 | SH-SY5Y | SRB | – | baseline: normal over SH-SY5Y IC50 | selectivity index | 1
COc1cc(-c2cc3c(N4CCC[C@H](C(=O)NCc5ccc(OC(F)(F)F)cc5)C4)ncnc3[nH]2)cc(OC)c1OC | NCI-H2228 | cell growth or viability, MTT | 0.008 µg/mL, 72 h | – | inhibition | 9.6%
COc1ccc2c(c1)c(CC(=O)[Se]CC(=O)Nc1cccc(C(F)(F)F)c1)c(C)n2C(=O)c1ccc(Cl)cc1 | NCI60 NSCLC subpanel | NCI60 five-dose screen | – | – | GI50 | 1830 nM
Cc1ncsc1-c1ccc(C(C)NC(=O)C2CC(O)CN2C(=O)C(NC(=O)CCCCCCCCCCN2CCCC(Nc3ncc(Cl)c(Nc4ccccc4S(=O)(=O)C(C)C)n3)C2)C(C)(C)C)cc1 (stereo not shown) | 22Rv1 | RNA-seq, measured: ZNF689 mRNA | concentration not given | baseline: DMSO | log2 fold change | -1.61
CCN(CC)CC(=O)Nc1cccc(-n2cc(-c3ccc4ccc(-c5cn(-c6cccc(NC(=O)CN(CC)CC)c6)nn5)cc4c3)nn2)c1 | RCC4 | PCR angiogenesis array, measured: ANGPTL4 | 5 x IC50, 6 h, normoxia | baseline: untreated | fold regulation | -6.62
CC(C)c1ccc(N(C)c2ccc3c(c2)OCC[C@H]3CNc2cnccc2C(=O)O)cc1 | NCI-H647 | cell growth or viability, ATP luminescence | 7 days | – | IC50 | 9.84 nM
Cc1nn(C)cc1-c1cc2c(N3CCC[C@H](C(=O)NCc4ccc(OC(F)(F)F)cc4)C3)ncnc2[nH]1 | NCI-H2228 | cell growth or viability, MTT | 0.008 µg/mL, 72 h | – | inhibition | 30.3%
CN1CCCNC(=O)c2cccc(c2)C(=O)NCCCN(C)CCCNc2cccc3c2C(=O)c2cccc(c2C3=O)NCCC1 | SAS | RNA-Seq, measured: ZNF596 mRNA | 1 µM, 6 h | baseline: untreated cells | log2 fold change | 2.41
CNS(=O)(=O)Nc1nccc(Cc2c(C)c3ccc(Oc4ncccc4F)cc3oc2=O)c1F | SUM185PE | cell viability | 7 days | – | IC50 | 92.4 nM

Some of these lines once more:
SMILES | cell line | test | conditions | how to read | quantity | result
Cc1n[nH]c(C)c1-c1cc2c(N3CCC[C@H](C(=O)NCc4ccc(OC(F)(F)F)cc4)C3)ncnc2[nH]1 | NCI-H2228 | cell growth or viability, MTT | 0.008 µg/mL, 72 h | – | inhibition | 50.9%
Cc1ccc(/C=N/N=C(\S)Nc2cccc(S(=O)(=O)N(C)C)c2)o1 | LDR | silenced CMV-GFP reporter derepression, qHTS | – | – | EC50 | 3.98 µM
Cc1cc(NC2CCN(C)CC2)ccc1-c1cc2c(N3CCC[C@H](C(=O)N[C@@H](C)c4ccccc4)C3)ncnc2[nH]1 | NCI-H2228 | cell growth or viability, MTT | 0.008 µg/mL, 72 h | – | inhibition | 12%
